Experimental data collected from several papers.
Each line is one published result; not all experiments were run side by side. Numbers after ± are the reported error.
Ryanodine receptor 1: Ryanodine receptor 1 (Oncorhynchus mykiss, UniProt A0A8C7UX14)
Gabrg2/Gabra3 with β3 subunit: Gabrg2/Gabra3, with β3 subunit (Rattus norvegicus, UniProt P18508+P20236)
Chain of UniProt P18508 (whole entry, looked up): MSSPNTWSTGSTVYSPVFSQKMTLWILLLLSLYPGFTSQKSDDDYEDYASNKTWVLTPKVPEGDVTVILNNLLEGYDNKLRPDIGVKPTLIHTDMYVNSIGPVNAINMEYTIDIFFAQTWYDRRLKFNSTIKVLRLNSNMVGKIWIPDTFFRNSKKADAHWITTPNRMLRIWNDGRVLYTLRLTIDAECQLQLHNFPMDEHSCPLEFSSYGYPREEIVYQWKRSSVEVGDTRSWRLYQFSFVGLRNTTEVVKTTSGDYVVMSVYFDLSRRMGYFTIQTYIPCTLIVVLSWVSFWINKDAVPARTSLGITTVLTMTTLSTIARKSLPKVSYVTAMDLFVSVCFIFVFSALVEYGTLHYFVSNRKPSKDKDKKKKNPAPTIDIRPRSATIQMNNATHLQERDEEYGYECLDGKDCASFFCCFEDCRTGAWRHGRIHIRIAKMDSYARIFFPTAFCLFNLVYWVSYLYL
Chain of UniProt P20236 (whole entry, looked up): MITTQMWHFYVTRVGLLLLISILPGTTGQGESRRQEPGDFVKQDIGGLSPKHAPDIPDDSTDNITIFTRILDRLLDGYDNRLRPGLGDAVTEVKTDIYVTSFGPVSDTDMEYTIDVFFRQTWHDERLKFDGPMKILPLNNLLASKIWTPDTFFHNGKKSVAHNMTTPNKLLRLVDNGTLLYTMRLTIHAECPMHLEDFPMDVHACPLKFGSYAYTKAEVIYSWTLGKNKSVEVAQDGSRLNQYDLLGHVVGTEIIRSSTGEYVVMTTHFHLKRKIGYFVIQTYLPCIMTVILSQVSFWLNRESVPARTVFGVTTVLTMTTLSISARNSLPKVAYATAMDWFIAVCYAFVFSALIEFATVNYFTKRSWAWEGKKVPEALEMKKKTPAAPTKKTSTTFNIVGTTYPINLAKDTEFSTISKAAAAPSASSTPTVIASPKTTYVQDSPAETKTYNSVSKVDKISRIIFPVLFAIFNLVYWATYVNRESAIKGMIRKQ
CNR1: Cannabinoid receptor 1 (CNR1, Homo sapiens, UniProt P21554)
Chain of UniProt P21554 (whole entry, looked up): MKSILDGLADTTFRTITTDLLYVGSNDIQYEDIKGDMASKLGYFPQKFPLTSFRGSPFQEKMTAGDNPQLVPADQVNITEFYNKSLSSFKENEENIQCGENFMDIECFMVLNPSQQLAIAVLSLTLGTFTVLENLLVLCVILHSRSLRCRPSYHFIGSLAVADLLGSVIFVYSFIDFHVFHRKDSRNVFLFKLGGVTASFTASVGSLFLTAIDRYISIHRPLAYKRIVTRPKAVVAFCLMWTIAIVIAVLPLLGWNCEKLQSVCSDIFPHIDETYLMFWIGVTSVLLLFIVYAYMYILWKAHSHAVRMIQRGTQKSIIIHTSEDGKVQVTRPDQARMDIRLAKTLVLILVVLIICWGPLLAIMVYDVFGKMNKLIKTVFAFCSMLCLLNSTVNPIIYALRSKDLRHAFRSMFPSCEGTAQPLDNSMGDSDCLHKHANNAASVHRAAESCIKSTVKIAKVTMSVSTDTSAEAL
Oprd1: Delta-type opioid receptor (Oprd1, Rattus norvegicus, UniProt P33533)
Chain of UniProt P33533 (whole entry, looked up): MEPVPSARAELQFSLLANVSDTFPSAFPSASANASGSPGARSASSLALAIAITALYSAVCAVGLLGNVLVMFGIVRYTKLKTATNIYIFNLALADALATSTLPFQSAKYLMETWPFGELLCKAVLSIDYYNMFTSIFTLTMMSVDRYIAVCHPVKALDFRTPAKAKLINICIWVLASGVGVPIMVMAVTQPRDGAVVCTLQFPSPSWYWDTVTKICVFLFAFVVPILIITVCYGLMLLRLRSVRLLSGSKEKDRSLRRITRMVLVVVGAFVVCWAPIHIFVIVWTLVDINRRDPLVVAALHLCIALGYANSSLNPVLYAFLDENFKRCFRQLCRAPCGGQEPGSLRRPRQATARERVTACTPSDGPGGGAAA
Chain of UniProt P41180 (whole entry, looked up): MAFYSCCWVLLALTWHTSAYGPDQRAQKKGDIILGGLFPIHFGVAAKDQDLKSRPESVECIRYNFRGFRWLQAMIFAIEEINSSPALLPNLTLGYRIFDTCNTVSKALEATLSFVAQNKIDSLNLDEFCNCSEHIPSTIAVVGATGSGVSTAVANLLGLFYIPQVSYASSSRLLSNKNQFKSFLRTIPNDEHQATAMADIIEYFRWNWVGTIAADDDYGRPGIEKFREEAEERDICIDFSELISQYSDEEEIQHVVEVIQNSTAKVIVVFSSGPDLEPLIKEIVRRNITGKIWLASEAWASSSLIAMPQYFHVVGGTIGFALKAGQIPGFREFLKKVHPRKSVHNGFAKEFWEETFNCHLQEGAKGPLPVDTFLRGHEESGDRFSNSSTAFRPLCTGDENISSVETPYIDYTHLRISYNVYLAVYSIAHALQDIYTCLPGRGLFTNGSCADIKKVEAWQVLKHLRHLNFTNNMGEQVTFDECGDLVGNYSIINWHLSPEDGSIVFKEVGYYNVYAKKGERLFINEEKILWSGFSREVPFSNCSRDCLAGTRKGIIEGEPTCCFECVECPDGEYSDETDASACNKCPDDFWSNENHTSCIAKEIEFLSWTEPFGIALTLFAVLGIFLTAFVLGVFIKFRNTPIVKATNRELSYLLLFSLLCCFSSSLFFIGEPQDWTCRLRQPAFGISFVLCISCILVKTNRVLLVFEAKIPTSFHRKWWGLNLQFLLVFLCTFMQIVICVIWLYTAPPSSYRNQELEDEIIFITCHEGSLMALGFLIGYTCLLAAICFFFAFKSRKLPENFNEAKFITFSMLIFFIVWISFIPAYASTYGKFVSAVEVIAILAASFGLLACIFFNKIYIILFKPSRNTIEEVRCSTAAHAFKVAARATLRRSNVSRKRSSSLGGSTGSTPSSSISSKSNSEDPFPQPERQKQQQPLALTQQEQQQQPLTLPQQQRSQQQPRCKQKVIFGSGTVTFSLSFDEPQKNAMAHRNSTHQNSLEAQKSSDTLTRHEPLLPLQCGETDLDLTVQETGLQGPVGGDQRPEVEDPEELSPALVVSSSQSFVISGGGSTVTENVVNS

The Emax of `Clc1ccc(Cl)c(-c2c(Cl)ccc(Cl)c2Cl)c1` is reported as 237 ± 5.69% (Ryanodine receptor 1; [3H]ryanodine binding; rainbow trout, skeletal muscle microsomes; up to 20 µM; baseline: DMSO).
`CCOC(=O)c1ncn2c1CN(C)C(=O)c1cc(F)ccc1-2` has an Emax of 157 ± 8% (Gabrg2/Gabra3 with β3 subunit; GABA-induced chloride current, two-electrode voltage clamp; Xenopus oocytes; with: GABA at EC3).
For `Clc1cc(Cl)c(-c2c(Cl)ccc(Cl)c2Cl)cc1Cl`, the Emax was 258 ± 4.45% (Ryanodine receptor 1; [3H]ryanodine binding; rainbow trout, skeletal muscle microsomes; up to 20 µM; baseline: DMSO).
For `CC(C)(C)OC(=O)c1ncn2c1[C@@H]1CCCN1C(=O)c1c(Br)cccc1-2`, the Emax was 234 ± 17% (Gabrg2/Gabra3 with β3 subunit; GABA-induced chloride current, two-electrode voltage clamp; Xenopus oocytes; with: GABA at EC3).
For `CN[C@@](C)(C[18F])C(=O)O`, the tissue uptake was 0.3 ± 0.1 %ID/g (SCID mouse DU-145 xenograft, brain; 60 min, post injection).
The Emax of `NC(=O)N1CCC[C@@H](CNC(=O)c2nn(Cc3ccc(F)cc3)c3ccccc23)C1` is reported as 79 ± 5% (CNR1; calcium mobilization, agonist; CHO-K1 expressing Gαq16; baseline: CP55,940 maximum).
`CC(C)C[C@H](NC(=O)[C@@H](NC(=O)[C@H](CO)NC(=O)[C@@H](NC(=O)[C@H](CCCNC(=N)N)NC(=O)[C@H](CO)NC(=O)[C@H](CC(C)C)NC(=O)[C@H](CC(=O)O)NC(=O)[C@H](CC(C)C)NC(=O)[C@H](CC(C)C)NC(=O)[C@@H](NC(=O)CNC(=O)[C@H](Cc1ccccc1)NC(=O)[C@H](CO)NC(=O)[C@@H](N)[C@@H](C)O)C(C)C)[C@@H](C)O)C(C)C)C(=O)O` gave an Emax of 92 ± 1.04% (CASR (Homo sapiens, UniProt P41180); intracellular Ca2+; HEK cells, full-length GPR64-transfected; 50 µM; baseline: 7.49 mM Ca2+ in vector cells).
The Emax of `CC(c1ccc(F)cc1)n1nc(C(=O)NC(C)(C)c2cccc(C(N)=O)c2)c2ccccc21` (centres unmarked) is reported as 77 ± 1% (CNR1; calcium mobilization, agonist; CHO-K1 expressing Gαq16; baseline: CP55,940 maximum).
The Emax of `NC(=O)[C@@H]1CSCSC[C@@H](NC(=O)[C@@H](N)Cc2ccc(O)cc2)C(=O)N[C@@H](Cc2ccccc2)C(=O)N[C@@H](Cc2cccc3ccccc23)C(=O)N1` is reported as 15 to 23% (Oprd1; G-protein activation, agonist; C6 cell membranes; baseline: SNC80 at 10 µM).
For `CNC(=O)c1cc2c(cn1)[nH]c1ccccc12`, the Emax was 91 ± 2% (Gabrg2/Gabra3 with β3 subunit; GABA-induced chloride current, two-electrode voltage clamp; Xenopus oocytes; with: GABA at EC3).
`Clc1ccc(Cl)c(-c2c(Cl)c(Cl)cc(Cl)c2Cl)c1` has an Emax of 177 ± 8.38% (Ryanodine receptor 1; [3H]ryanodine binding; rainbow trout, skeletal muscle microsomes; up to 20 µM; baseline: DMSO).
For `CC(C)(NC(=O)c1nn(Cc2ccc(F)cc2)c2ccccc12)c1cccc(NC(N)=O)c1`, the Emax was 40 ± 9% (CNR1; calcium mobilization, agonist; CHO-K1 expressing Gαq16; baseline: CP55,940 maximum).
`Clc1cccc(-c2cccc(Cl)c2Cl)c1` has an Emax of 116 ± 3.13% (Ryanodine receptor 1; [3H]ryanodine binding; rainbow trout, skeletal muscle microsomes; up to 20 µM; baseline: DMSO).
For `NC(=O)c1ccccc1CNC(=O)c1nn(Cc2ccc(F)cc2)c2ccccc12`, the Emax was 105 ± 1% (CNR1; calcium mobilization, agonist; CHO-K1 expressing Gαq16; baseline: CP55,940 maximum).
`NC(=O)[C@@H]1CSCSC[C@@H](NC(=O)[C@@H](N)Cc2ccc(O)cc2)C(=O)N[C@@H](Cc2ccc3ccccc3c2)C(=O)N[C@@H](Cc2ccccc2)C(=O)N1` has an Emax of 15 to 23% (Oprd1; G-protein activation, agonist; C6 cell membranes; baseline: SNC80 at 10 µM).
With `Clc1cc(Cl)c(-c2cc(Cl)c(Cl)cc2Cl)cc1Cl` the Emax was > 160% (Ryanodine receptor 1; [3H]ryanodine binding, activator; trout muscle microsomes; concentration not given; baseline: DMSO).
For `CC(C)(NC(=O)c1nn(Cc2ccc(C#N)cc2)c2ccccc12)c1cccc(C(N)=O)c1`, the Emax was 15 ± 3% (CNR1; calcium mobilization, agonist; CHO-K1 expressing Gαq16; baseline: CP55,940 maximum).

A few entries again:
`Clc1cccc(-c2cccc(Cl)c2Cl)c1` has an Emax of 116 ± 3.13% (Ryanodine receptor 1; [3H]ryanodine binding; rainbow trout, skeletal muscle microsomes; up to 20 µM; baseline: DMSO).
For `NC(=O)c1ccccc1CNC(=O)c1nn(Cc2ccc(F)cc2)c2ccccc12`, the Emax was 105 ± 1% (CNR1; calcium mobilization, agonist; CHO-K1 expressing Gαq16; baseline: CP55,940 maximum).
